Results collected from several papers.
Each line is one published result; not all experiments were run side by side. “And” joins repeats or separate records; there may be more than shown. ± gives the spread as reported.
CELF1 del215-384: CUGBP Elav-like family member 1 (CELF1, Homo sapiens, UniProt Q92879, del215-384)
Chain of UniProt Q92879 (whole entry, unmodified, looked up): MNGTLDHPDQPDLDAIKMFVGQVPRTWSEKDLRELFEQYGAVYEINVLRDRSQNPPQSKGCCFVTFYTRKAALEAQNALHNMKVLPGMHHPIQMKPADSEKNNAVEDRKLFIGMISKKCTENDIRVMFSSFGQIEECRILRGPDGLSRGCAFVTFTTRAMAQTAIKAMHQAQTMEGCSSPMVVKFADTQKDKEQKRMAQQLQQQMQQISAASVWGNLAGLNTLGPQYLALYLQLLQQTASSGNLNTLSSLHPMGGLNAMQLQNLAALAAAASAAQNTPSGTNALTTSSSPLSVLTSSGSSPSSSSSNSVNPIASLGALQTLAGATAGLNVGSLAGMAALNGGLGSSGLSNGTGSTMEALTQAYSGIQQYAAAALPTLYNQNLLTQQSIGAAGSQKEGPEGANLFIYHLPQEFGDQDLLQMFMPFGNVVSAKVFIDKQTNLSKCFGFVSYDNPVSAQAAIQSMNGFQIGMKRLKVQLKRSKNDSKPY
Thymocyte selection-associated high mobility group box protein TOX with KAT7: Thymocyte selection-associated high mobility group box protein TOX, with KAT7 (Homo sapiens, UniProt O94900)
Chain of UniProt O94900 (whole entry, looked up): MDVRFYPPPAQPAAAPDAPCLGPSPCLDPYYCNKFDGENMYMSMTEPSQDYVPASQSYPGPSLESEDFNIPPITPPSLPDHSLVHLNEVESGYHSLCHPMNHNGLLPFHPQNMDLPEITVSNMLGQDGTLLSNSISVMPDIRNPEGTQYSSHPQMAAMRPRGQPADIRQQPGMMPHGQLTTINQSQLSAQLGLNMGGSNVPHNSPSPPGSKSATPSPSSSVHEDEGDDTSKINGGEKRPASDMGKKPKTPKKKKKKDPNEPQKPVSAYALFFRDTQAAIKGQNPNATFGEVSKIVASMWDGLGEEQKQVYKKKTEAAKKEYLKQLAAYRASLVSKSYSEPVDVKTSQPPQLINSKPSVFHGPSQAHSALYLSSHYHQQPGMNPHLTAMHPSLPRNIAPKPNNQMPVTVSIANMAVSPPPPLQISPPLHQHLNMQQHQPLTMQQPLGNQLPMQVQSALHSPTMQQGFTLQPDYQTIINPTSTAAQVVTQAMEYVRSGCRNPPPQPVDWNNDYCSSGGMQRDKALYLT
CD274 with PD-1: Programmed cell death 1 ligand 1, with PD-1 (CD274, Homo sapiens, UniProt Q9NZQ7)
Chain of UniProt Q9NZQ7 (whole entry, looked up): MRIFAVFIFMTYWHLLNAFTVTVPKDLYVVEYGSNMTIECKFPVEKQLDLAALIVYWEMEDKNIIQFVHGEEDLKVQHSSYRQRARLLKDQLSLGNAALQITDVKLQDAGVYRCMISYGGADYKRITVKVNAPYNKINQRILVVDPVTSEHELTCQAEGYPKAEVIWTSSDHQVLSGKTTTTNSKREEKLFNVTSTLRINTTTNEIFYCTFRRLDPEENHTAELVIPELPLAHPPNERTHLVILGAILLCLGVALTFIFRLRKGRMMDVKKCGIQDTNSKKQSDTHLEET
F2: Prothrombin (F2, Homo sapiens, UniProt P00734)
CA9: Carbonic anhydrase 9 (CA9, Homo sapiens, UniProt Q16790)
PSMB5: Proteasome Macropain subunit MB1 (PSMB5, Homo sapiens, UniProt P28074)
Chain of UniProt P28074 (whole entry, looked up): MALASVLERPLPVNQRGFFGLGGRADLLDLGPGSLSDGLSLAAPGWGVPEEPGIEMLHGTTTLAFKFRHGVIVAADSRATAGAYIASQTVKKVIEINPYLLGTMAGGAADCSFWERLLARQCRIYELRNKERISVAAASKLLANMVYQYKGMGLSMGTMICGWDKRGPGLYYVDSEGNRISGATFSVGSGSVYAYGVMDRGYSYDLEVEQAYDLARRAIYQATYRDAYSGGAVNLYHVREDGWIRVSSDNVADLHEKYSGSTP
CXCR4: C-X-C chemokine receptor type 4 (CXCR4, Homo sapiens, UniProt P61073)
Chain of UniProt P61073 (whole entry, looked up): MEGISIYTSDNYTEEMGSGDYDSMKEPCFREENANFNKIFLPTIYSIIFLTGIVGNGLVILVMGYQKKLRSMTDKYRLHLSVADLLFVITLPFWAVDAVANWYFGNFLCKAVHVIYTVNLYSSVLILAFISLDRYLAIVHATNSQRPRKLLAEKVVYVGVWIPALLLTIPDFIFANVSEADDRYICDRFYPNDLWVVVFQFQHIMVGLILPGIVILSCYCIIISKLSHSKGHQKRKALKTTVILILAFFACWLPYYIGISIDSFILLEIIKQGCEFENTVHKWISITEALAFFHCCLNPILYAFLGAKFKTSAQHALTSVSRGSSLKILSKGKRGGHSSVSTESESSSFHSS
Methionyl-tRNA synthetase, putative: Methionyl-tRNA synthetase, putative (Trypanosoma brucei brucei, UniProt Q38C91)
Chain of UniProt P32745 (whole entry, looked up): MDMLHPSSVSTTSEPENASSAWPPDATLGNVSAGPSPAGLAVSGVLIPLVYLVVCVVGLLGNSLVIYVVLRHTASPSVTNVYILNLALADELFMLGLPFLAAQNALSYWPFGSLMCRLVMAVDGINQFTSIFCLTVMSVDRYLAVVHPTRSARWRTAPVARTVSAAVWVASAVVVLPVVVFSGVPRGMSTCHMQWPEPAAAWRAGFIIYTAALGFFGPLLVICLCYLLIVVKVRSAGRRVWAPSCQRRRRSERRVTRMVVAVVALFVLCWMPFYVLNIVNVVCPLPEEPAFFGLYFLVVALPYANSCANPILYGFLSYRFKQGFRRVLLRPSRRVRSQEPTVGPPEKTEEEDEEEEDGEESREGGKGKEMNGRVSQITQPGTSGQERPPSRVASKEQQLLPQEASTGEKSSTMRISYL
Chain of UniProt Q15561 (whole entry, looked up): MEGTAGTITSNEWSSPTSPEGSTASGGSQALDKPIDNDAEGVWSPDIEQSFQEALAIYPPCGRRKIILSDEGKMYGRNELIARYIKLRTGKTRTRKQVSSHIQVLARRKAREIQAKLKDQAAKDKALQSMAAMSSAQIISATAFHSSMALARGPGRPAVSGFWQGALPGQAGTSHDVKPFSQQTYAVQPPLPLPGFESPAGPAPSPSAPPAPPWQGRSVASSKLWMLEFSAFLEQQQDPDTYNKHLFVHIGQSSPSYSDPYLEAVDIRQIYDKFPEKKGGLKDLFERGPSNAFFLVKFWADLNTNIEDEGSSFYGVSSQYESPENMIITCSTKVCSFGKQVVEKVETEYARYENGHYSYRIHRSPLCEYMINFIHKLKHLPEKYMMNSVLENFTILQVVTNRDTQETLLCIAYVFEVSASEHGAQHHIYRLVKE
Chain of UniProt P18031 (whole entry, looked up): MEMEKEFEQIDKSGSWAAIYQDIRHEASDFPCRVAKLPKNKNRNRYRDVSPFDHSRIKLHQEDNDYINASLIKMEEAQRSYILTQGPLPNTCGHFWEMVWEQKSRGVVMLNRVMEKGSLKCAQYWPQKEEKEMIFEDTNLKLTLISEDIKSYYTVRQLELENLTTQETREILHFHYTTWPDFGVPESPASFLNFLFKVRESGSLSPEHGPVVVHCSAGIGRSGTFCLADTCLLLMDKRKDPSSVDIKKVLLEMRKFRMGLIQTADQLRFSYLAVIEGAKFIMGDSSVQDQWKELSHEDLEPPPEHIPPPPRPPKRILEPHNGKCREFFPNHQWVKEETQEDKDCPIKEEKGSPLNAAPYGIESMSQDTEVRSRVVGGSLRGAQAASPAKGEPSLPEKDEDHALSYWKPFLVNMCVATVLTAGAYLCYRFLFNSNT
Chain of UniProt Q9NTG7 (whole entry, looked up): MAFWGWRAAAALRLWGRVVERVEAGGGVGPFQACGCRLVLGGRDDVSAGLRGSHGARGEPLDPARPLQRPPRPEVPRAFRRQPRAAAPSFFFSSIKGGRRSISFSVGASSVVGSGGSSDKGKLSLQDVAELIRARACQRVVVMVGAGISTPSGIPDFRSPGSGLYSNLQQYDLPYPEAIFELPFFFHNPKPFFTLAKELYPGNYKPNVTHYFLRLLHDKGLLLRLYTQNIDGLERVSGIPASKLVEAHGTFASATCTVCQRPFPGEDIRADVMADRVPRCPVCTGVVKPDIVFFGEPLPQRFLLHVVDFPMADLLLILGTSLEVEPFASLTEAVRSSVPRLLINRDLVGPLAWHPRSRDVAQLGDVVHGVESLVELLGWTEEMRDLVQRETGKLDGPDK
Chain of UniProt Q9QXD6 (whole entry, unmodified, looked up): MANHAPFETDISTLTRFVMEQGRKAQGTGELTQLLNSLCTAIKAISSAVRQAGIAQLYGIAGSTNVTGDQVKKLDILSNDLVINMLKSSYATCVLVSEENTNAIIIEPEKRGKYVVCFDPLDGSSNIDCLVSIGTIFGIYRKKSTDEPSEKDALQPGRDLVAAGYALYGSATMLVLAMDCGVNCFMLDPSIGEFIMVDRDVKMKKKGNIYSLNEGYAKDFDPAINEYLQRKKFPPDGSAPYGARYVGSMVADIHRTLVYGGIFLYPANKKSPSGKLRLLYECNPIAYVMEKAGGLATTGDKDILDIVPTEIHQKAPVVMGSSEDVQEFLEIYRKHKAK
Chain of UniProt Q8NCG7 (whole entry, looked up): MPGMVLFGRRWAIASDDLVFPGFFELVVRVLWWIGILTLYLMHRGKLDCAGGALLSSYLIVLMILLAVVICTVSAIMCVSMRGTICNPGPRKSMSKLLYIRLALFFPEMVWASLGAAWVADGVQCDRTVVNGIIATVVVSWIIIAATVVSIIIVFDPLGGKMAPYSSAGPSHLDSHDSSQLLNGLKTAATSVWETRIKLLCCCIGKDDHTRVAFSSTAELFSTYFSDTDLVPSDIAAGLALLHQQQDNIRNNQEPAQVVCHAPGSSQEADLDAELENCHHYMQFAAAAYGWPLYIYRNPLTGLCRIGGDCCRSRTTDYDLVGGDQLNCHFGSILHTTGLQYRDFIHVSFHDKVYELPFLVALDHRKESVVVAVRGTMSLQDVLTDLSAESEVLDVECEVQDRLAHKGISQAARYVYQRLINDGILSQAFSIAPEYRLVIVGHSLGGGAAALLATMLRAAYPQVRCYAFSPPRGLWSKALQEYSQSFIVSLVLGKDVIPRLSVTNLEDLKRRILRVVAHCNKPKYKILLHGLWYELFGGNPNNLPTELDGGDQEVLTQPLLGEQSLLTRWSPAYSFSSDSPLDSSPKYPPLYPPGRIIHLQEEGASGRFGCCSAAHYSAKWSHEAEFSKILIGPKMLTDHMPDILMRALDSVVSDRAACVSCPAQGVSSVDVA

Structure (SMILES) | target | assay | test system | setting | how to read | IC50
CC[C@H](C)[C@H](NC(=O)[C@H](CCCNC(=N)N)NC(=O)[C@@H]1CCCN1C(=O)[C@@H](N)CCCCN)C(=O)N[C@@H](CCCNC(=N)N)C(=O)N[C@@H](Cc1ccccc1)C(=O)O | B1 bradykinin receptor (Rattus norvegicus, UniProt P97583) | ligand displacement, radioligand |  | cell membranes |  | 0.59 µM
O=C(CCl)c1ccccc1Nc1cccc(C(F)(F)F)c1 | TEAD4 (Homo sapiens, UniProt Q15561) | thiol conjugation, inhibitor, CPM |  | pH 6.5 |  | 6.88 µM
C#CCNC(=O)c1ccc(S(=O)(=O)N[C@@H](CCCCNC(=S)NC)C(=O)N[C@@H](CCCNC(=N)N)C(=O)N[C@@H](CC2CCCCC2)C(N)=O)cc1 | SIRT3 (Homo sapiens, UniProt Q9NTG7) | enzyme activity, inhibitor, fluorescence |  |  |  | 0.51 µM
Nc1nc2nc[nH]c2c(=S)[nH]1 | CELF1 del215-384 | CELF1-RNA binding, inhibitor, fluorescence polarization |  | CELF1 20 nM, with: RNA 10 nM |  | 17.1 ± 4.3 µM
CCOc1cc(CN2CCC3(CC2)CN(c2ccc(C(=O)O)cc2)C(=O)N3)c(C2CC2)cc1C | SSTR5 (Homo sapiens, UniProt P35346) | cAMP level, agonist, GloSensor | AD293 | with: CST17 EC80 and forskolin |  | 0.00224 µM
N#Cc1c(N)nc2c(c1-c1ccc(CO)o1)CCc1cc(O)ccc1-2 | Thymocyte selection-associated high mobility group box protein TOX with KAT7 | TOX-KAT7 binding, inhibitor, ELISA |  |  | no inhibition at 10 µM | > 10 µM
Cc1c(COc2cc(OCc3cccc(C#N)c3)c(CNC(CO)(CO)CO)cc2Cl)cccc1-c1cccc(OCCCCCCC(=O)NO)c1 | CD274 with PD-1 | PD-1/PD-L1 binding, inhibitor, HTRF |  |  |  | 0.028 µM
C=CC(=O)Nc1ccc(F)c(-c2ncnc3[nH]cc(C(=O)OCC)c23)c1 | BTK (Homo sapiens, UniProt Q06187) | inhibitor, kinase |  | with: ATP 1 mM |  | 0.363 µM
O=C(CNC(=O)c1cccc(NC2=NCCCS2)c1)NC[C@H](NC(=O)c1c(Cl)cc(-c2ccccc2)cc1Cl)C(=O)O | Integrin alpha-5/beta-1 (Homo sapiens, UniProt P05556+P08648) | cell adhesion, inhibitor | SW480 | with: fibronectin 0.3 µg/mL |  | 0.02 µM
COCCN(C)C(C)C(=O)NC(Cc1ccc(-c2ccccc2)cc1)B(O)O (stereo not shown) | 20S proteasome beta subunits, part β2 subunit (Plasmodium falciparum, UniProt Q8I261+Q8I6T3) | β2 activity, inhibitor |  | with: Ac-WLR-AMC |  | > 10 µM
OB(O)c1sccc1/C=N/OCc1ccccc1 | F2 | enzyme activity, inhibitor |  |  |  | > 100 µM
COCC(=O)N1CCc2cc(-c3csc(NC(=O)c4cc(OC)cc(OC)c4)n3)ccc21 | Scavenger receptor class B member 1 (Mus musculus, UniProt Q61009) | HDL binding, enhancer | ldlA[mSR-BI] cells | with: Alexa488-HDL |  | 0.035 µM
NC(N)=NS(=O)(=O)c1ccc(NC(=O)/C=C\C(=O)O)cc1 | DPP4 (Homo sapiens, UniProt P27487) | enzyme activity, inhibitor, fluorescence |  |  |  | 43.2 µM
C[C@H](CCC(=O)NCCS(=O)(=O)O)[C@H]1CC[C@H]2[C@@H]3CC[C@@H]4C[C@H](OS(=O)(=O)O)CC[C@]4(C)[C@H]3CC[C@]12C | SLC25A13 (Homo sapiens, UniProt Q9UJS0) | aspartate/glutamate exchange | proteoliposomes | 1 min, with: [14C]Asp 1 mM, Glu 20 mM inside |  | 117 ± 14.5 µM
C/C=C/C(=O)Nc1ccc2nc(NCCCCCN(C)C)nc(NCCCCCCN(C)C)c2c1 | SETDB1 (Homo sapiens, UniProt Q15047) | enzyme activity, inhibitor |  |  |  | 165 µM and 105 µM and 123 µM
CC(NCC1(c2ccc(Br)cc2)CCOCC1)C(=O)Nc1ccc(S(N)(=O)=O)cc1 (stereo not shown) | CA9 | enzyme activity, inhibitor |  |  |  | 0.0191 µM
Cn1c(S)nnc1-c1ccc(F)cc1 | CELF1 del215-384 | CELF1-RNA binding, inhibitor, fluorescence polarization |  | 20 nM CELF1, with: 10 nM RNA |  | 0.63 ± 0.16 µM
C[C@@H](O)[C@@H]1NC(=O)[C@H](CCCCN)NC(=O)[C@@H](Cc2c[nH]c3ccccc23)NC(=O)[C@H](Cc2ccc(NC(N)=O)cc2)NC(=O)[C@H](NC(=O)[C@H](Cc2ccccc2)NC(N)=O)CSSC[C@@H](C(=O)N[C@@H](Cc2ccc3ccccc3c2)C(N)=O)NC1=O | SSTR3 (Homo sapiens, UniProt P32745) | radioligand binding, inhibitor, competitive radioligand displacement |  | cloned receptor |  | 0.111 µM and 0.293 µM
NC(=O)c1ncn(C2OC(COP(=O)(O)O)C(O)C2O)c1N (stereo not shown) | Fructose-1,6-bisphosphatase 1 (Mus musculus, UniProt Q9QXD6, G27P) | enzyme activity, inhibitor |  |  |  | > 10000 µM
CC(C)C[C@H](NC(=O)[C@H](Cc1ccc(CN)cc1)NC(=O)[C@H](Cc1ccccc1)N=[N+]=[N-])C(=O)N[C@@H](CC1CC2CCC1C2)C(=O)[C@@]1(C)CO1 (stereo in doubt) | PSMB5 | competitive ABPP | Raji cell lysate |  |  | 6.28 µM
Cc1ccc2nc(C)n(/N=C/c3ccc(C(=O)O)cc3)c(=O)c2c1 | F2 | enzyme activity, inhibitor |  |  |  | 116 µM
Cc1c(COc2cc(OCc3cccc(C#N)c3)c(CN3CCCC[C@@H]3C(=O)O)cc2Cl)cccc1-c1cccc(OCCCCCCC(=O)NO)c1 | CD274 with PD-1 | PD-1/PD-L1 binding, inhibitor, HTRF |  |  |  | 0.0881 µM
Nn1c(-c2cccs2)n[nH]c1=S | CELF1 del215-384 | CELF1-RNA binding, inhibitor, fluorescence polarization |  | 20 nM CELF1, with: 10 nM RNA |  | 0.35 ± 0.16 µM

Structure (SMILES) | target | assay | test system | setting | how to read | IC50
CC(C)C[C@H](NC(=O)[C@H](Cc1ccc(CN)cc1)NC(=O)[C@H](Cc1ccccc1)N=[N+]=[N-])C(=O)N[C@@H](CC1CCC(C2CCCCC2)CC1)C(=O)[C@@]1(C)CO1 (stereo partly shown) | PSMB5 | competitive ABPP | Raji cell lysate |  |  | 3.73 µM
Cn1ncc2cc(-c3cncc(Cl)c3N3CCC4(CCNC4=O)CC3)ccc21 | Cyclin-dependent kinase 19, with cyclin C (CDK19, Homo sapiens, UniProt Q9BWU1) | ligand displacement |  |  |  | 0.004 µM
CO[C@@H]1[C@@H](OC(=O)c2ccc(C)[nH]2)[C@@H](O)[C@H](Oc2ccc3c(O)c(NC(=O)c4c[nH]c(C(=O)Nc5c(O)c6ccc(O[C@@H]7OC(C)(C)[C@H](OC)[C@@H](OC(=O)c8ccc(C)[nH]8)[C@H]7O)c(C)c6oc5=O)c4C)c(=O)oc3c2C)OC1(C)C | human CMG helicase | helicase activity |  | with: ATP 2 mM |  | 12.3 µM
O=C(Nc1ccccc1)Nc1cccc(O)c1 | SRPK3 (Homo sapiens, UniProt Q9UPE1) | enzyme activity, inhibitor, FRET |  |  |  | 7.5 µM
CS(=O)(=O)c1ccc(-c2cc(Cl)c(C(=O)N[C@@H](CNC(=O)CNC(=O)c3cccc(NC(=N)N)c3)C(=O)O)c(Cl)c2)cc1 | Integrin alpha-V/beta-5 (Homo sapiens, UniProt P06756+P18084) | cell adhesion, inhibitor | SW480 | with: vitronectin 1 µg/mL |  | 100 µM
O=C(O)c1ccc2c3n(nc2c1)[C@@H]1[C@H](CO3)N(CC2CC2)[C@@]2(C(=O)Nc3cc(Cl)ccc32)[C@H]1c1cccc(Cl)c1F | Protein Mdm4, with p53 (MDM4, Homo sapiens, UniProt O15151, C17S) | MDMX-p53 binding, inhibitor, AlphaScreen |  |  |  | 9.12 µM
Nc1ncc2c(n1)-c1c([nH]c3ccc(C#CC4CC4)cc13)CCCC2 | DSTYK (Homo sapiens, UniProt Q6XUX3) | enzyme activity, inhibitor, radiometric |  |  |  | 6.4 µM
CC(C)C[C@H](NC(=O)[C@H](Cc1ccc(CN)cc1)NC(=O)[C@H](Cc1ccccc1)N=[N+]=[N-])C(=O)N[C@H](C(=O)[C@@]1(C)CO1)C1CCCCC1 | PSMB5 | competitive ABPP | Raji cell lysate |  |  | > 10 µM
CC1(C)C(=O)N=C2C1=C(O)C(=O)c1ccccc12 | CARM1 (Homo sapiens, UniProt Q86X55) | enzyme activity, inhibitor |  |  |  | 2 µM
Cc1nn(-c2cccc(N)c2)c(=O)c2cnc(Nc3ccc(N4CCNCC4)cc3)nc12 | Protein kinase C beta type, isoform beta-II (PRKCB, Homo sapiens, UniProt P05771) | inhibitor |  | PKCβII isoform |  | 3.12 µM
CC(C)C[C@H](NC(=O)[C@H](Cc1ccc(CN)cc1)NC(=O)[C@H](Cc1ccccc1)N=[N+]=[N-])C(=O)N[C@@H](CC1CCCC2CCCCC21)C(=O)[C@@]1(C)CO1 (stereo partly shown) | PSMB5 | competitive ABPP | Raji cell lysate |  |  | > 10 µM
CCS(=O)(=O)c1ncc(N(Cc2ccco2)Cc2ccc(C)o2)c(C(=O)Nc2ccccc2F)n1 | CXCR4 | β-arrestin recruitment, antagonist |  |  |  | 2 µM
O=C(NS(=O)(=O)c1cccs1)c1cc2ccccc2n1Cc1ccc(Br)c2ccccc12 | SLC22A11 (Homo sapiens, UniProt Q9NSA0) | transporter uptake, inhibitor |  |  |  | 6.08 µM
CC1=CC(C)=[N+]2C1=Cc1ccc(CCC(=O)N3CCN(c4ccc(C(=O)N[C@H]5CC[C@H](Oc6ccc(C#N)c(Cl)c6)CC5)nn4)CC3)n1[B-]2(F)F | Androgen receptor (Ar, Rattus norvegicus, UniProt P15207) | ligand displacement, FP |  |  |  | 0.013 µM
Clc1cc(Cl)cc(CNCCCNc2nc3ccccc3[nH]2)c1 | Methionyl-tRNA synthetase, putative | enzyme activity, inhibitor |  |  |  | < 0.01 µM
COc1ccc(-c2ccc(-c3cn(C(=O)N4CCCCC4c4ccccc4)nn3)cc2)cc1 (stereo not shown) | Diacylglycerol lipase-beta (Homo sapiens, UniProt Q8NCG7) | enzyme activity, inhibitor |  |  |  | > 10 µM
Clc1cc(Cl)c2c(c1)[C@H](NCCCNc1nc3ncccc3[nH]1)CCN2 | Methionyl-tRNA synthetase, putative | enzyme activity, inhibitor |  |  |  | < 0.01 µM
CC(=S)NCCCC[C@H](NC(=O)OCc1ccccc1)C(=O)N[C@@H](Cc1c[nH]c2ccccc12)C(=O)NC(C)C | SIRT1 (Homo sapiens, UniProt Q96EB6) | enzyme activity, inhibitor |  |  |  | 1.4 µM
Nc1nonc1-c1nnc2c(n1)-c1ccccc1C2=O | EHMT2 (Homo sapiens, UniProt Q96KQ7) | enzyme activity, inhibitor |  |  |  | 1.2 µM
N#Cc1c(N)nc2c(c1-c1cccs1)Cc1cc(O)ccc1-2 | Thymocyte selection-associated high mobility group box protein TOX with KAT7 | TOX-KAT7 binding, inhibitor, ELISA |  |  | no inhibition at 10 µM | 9.9 µM
CC(C)c1noc(CN2CC(C)N(Cc3nc(C(C)C)no3)c3ccccc32)n1 (stereo not shown) | CXCR4 | β-arrestin recruitment, antagonist |  |  |  | 13 µM
NS(=O)(=O)c1ccc(NC(=O)C2CCCN(c3ccc(-c4ccco4)nn3)C2)cc1 (stereo not shown) | CA9 | enzyme activity, inhibitor |  |  |  | 0.0141 µM
CSCCCC/C(=N/OS(=O)(=O)O)S[C@@H]1O[C@H](CO)[C@@H](O)[C@H](O)[C@H]1O | PTPN1 (Homo sapiens, UniProt P18031) | enzyme activity, inhibitor, absorbance |  |  |  | 6.07 µM

Repeated from above:
Structure (SMILES) | target | assay | test system | setting | how to read | IC50
CC(C)C[C@H](NC(=O)[C@H](Cc1ccc(CN)cc1)NC(=O)[C@H](Cc1ccccc1)N=[N+]=[N-])C(=O)N[C@@H](CC1CCC(C2CCCCC2)CC1)C(=O)[C@@]1(C)CO1 (stereo partly shown) | PSMB5 | competitive ABPP | Raji cell lysate |  |  | 3.73 µM
O=C(Nc1ccccc1)Nc1cccc(O)c1 | SRPK3 (Homo sapiens, UniProt Q9UPE1) | enzyme activity, inhibitor, FRET |  |  |  | 7.5 µM
N#Cc1c(N)nc2c(c1-c1ccc(CO)o1)CCc1cc(O)ccc1-2 | Thymocyte selection-associated high mobility group box protein TOX with KAT7 | TOX-KAT7 binding, inhibitor, ELISA |  |  | no inhibition at 10 µM | > 10 µM
